Measurements collected from several papers.
Parts stem from different laboratories: compare values within a part only. Changes are numbered by the printed parent chain.

Sample 1 — target: CCNB1, cyclin fold, Cln2 fusion (human); method: yeast growth competition, sequencing; matrix: yeast; setting: weak parent motif; relative to: not given; reading: higher = stronger binding
Parent: HIRA docking peptide (human); SLSKRKLELEVET
Variant	normalised enrichment score
V11A	-0.836
L7A	-0.736
R5A	-0.0579
L2A	0.322
R5K	0.214
E8A	0.273
K4A	-0.552

Sample 2 — method: RNAcompete; form: RNA; matrix: in vitro; concentration: 20 nM; setting: 7-mer, probes averaged, single round; relative to: mean of 7-mers; reading: higher = stronger binding
Target: PABPC1L2, full length, GST fusion (mouse, UniProt A0ABA7IW68)
Target sequence (chain): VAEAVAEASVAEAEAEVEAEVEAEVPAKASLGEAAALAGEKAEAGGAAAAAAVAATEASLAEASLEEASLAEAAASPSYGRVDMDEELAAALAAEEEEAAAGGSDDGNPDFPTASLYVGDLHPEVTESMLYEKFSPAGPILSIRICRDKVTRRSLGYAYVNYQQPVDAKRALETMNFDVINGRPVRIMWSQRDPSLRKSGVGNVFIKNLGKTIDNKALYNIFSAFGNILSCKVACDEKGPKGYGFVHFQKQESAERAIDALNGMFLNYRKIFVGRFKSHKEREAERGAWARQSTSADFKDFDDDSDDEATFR
Oligonucleotide	7-mer Z-score
AUAGAAU	0.149
UGGUGUC	-0.204
GCCCAUC	-0.224
CGAACGG	-0.182
GACGGGA	0.142
GUAAGGC	0.0623
GUAUAGU	-0.242
CGGACCU	-0.0772
GUAUAAU	-0.2
CAGCAGC	-0.0482
ACUCUGC	-0.342
CUCCAAG	-0.22
GGUACAC	-0.0518
GAAGACC	-0.0917
ACGAGCA	0.0932
CAUACAA	0.408

Sample 3 — method: protein-binding microarray; form: double-stranded DNA, one strand shown; matrix: in vitro; concentration: 2540 nM top; setting: 60-bp whole probe; together with: salmon DNA 0.4 mg/ml; relative to: random background probes; reading: higher = stronger binding; all sequences stand within: GCCTAGCAC … GTCTTGATTCGCTTGACGCTGCTG
Target: Interferon regulatory factor 3, full length, phosphomimetic (IRF3, Homo sapiens, UniProt Q14653, residues 1-427, S386D/S396D/S398D/S402D/T404D/S405D)
Construct (chain): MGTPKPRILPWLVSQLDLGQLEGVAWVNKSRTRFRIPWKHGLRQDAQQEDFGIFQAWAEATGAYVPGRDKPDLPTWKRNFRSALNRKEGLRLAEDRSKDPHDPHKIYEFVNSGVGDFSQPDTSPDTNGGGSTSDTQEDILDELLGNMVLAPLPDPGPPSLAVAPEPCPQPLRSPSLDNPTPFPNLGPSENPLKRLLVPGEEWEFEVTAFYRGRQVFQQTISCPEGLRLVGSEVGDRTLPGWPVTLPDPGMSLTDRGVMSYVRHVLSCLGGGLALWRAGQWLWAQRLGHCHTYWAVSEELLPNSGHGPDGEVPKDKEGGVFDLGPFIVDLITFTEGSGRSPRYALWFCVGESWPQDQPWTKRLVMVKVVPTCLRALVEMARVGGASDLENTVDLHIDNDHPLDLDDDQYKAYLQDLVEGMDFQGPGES
Oligonucleotide	fitted relative affinity
GACGGTTCCATTTTCCTGACGTGCTAG	5.33 z-score
TTAGGTATCGGGACTGAGTTAGTGCTA	1.32 z-score
GTCGGACTGGACACTGGGGACGTGCTA	-0.377 z-score
TTAGAACTGAGTATCGATTCGTGCTAG	0.708 z-score
TTAGGACTGGGGTATCGGTCAGTGCTA	-0.506 z-score
TTACGACTGCTTTTCCTTTAGTGCTAG	0.794 z-score
GACGATTTCAGTTTCGAGATGTGCTAG	4.5 z-score
TTAGGTTTCGGGACTGCGTTAGTGCTA	4.28 z-score
GACGGTTACGGTCTCGGGACGTGCTAG	1.14 z-score
TCATATCTGTGTTATTAAACTGTGCTA	0.857 z-score
GACGGACCGGGTCTCGGGACGTGCTAG	-0.33 z-score
TCAGGACTGGGTTTCGGTTAGTGCTAG	3.01 z-score
GACGGTCTGGGTTTCGGGACGTGCTAG	1.15 z-score
TTAGGTTTCGGGTATTGGTTAGTGCTA	3.75 z-score
TCAGCTATCACTATTCTACTGTGCTAG	0.859 z-score
TTAGGGATCCTTATCCTTTAGTGCTAG	3.57 z-score
GAAGGTCTCCTTTTCCTGACGTGCTAG	4.61 z-score
TTAGATTTCGGGATTCGATTAGTGCTA	1.81 z-score
TTAGGTTTCGCCTATCGGTTAGTGCTA	2.34 z-score
CATAGAGATGCCTGTCCTCTGTGCTAG	-0.334 z-score
TCATTTTAATTTTTAACACTGTGCTAG	2.39 z-score
GACGGTTCCCTTTTTCTGACGTGCTAG	5.89 z-score
GATGGTATCGGTATCGGGACGTGCTAG	4.66 z-score

Sample 4 — target: FOSL2, bZIP domain (human); method: DHFR protein complementation; matrix: yeast; relative to: wild-type JUN-FOS pair; reading: higher = stronger binding
Setting: single substitutions, most at no-binding floor
Parent: JUN, bZIP domain (human); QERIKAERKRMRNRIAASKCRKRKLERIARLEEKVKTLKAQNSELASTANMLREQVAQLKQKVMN; partner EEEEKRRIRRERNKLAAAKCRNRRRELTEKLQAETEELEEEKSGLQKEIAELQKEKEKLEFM
Variant	binding fitness
E44S	-0.0516 natural log
S47V	0.16 natural log
S47G	0.0445 natural log
V35G	-0.95 natural log
T37Q	0.136 natural log
A49N	-0.545 natural log
R53Q	-0.398 natural log
Q41P	-1.27 natural log
K36F	-0.108 natural log
M51A	0.16 natural log
R53V	-0.582 natural log
I28H	-0.0831 natural log
A49R	0.192 natural log
A46L	0.0467 natural log
K34E	-0.049 natural log
R53N	-0.612 natural log

Sample 5 — method: protein binding microarray; form: double-stranded DNA, one strand shown; matrix: in vitro; concentration: not given; relative to: not given; reading: higher = stronger binding
Target: Histone acetyltransferase KAT6A, winged helix 1, GST fusion (KAT6A, Homo sapiens, UniProt Q92794, residues 1-85)
Setting: 8-mer, flanks averaged, mean of 2 arrays, mostly near background
Residues (chain): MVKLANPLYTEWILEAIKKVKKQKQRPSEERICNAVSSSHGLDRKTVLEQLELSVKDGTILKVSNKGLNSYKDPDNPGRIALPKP
Oligonucleotide	E-score
ATTAAACC	0.0111
ATTCGTCC	0.0158
ATTTCATG	-0.258
AGGTTCGG	0.0275
AAACTCGT	-0.112
CCCTAGCA	-0.21
GATATACC	0.0237
GAGCAGAC	0.0329
GTGGCGGA	0.11
AGAGGGGG	-0.208
AGAGCAAA	-0.31
AACCGCGG	0.404
AAGCAACG	-0.0602
AATATTGG	-0.171
GGCGTCAA	-0.00019
CAGTCCCG	0.258
CACAGTCC	-0.043
ACCACACA	-0.341

Sample 6 — method: universal PBM; form: double-stranded DNA, one strand shown; matrix: in vitro; concentration: not given; reading: higher = stronger binding
Target: Sal-like protein 4, full length isoform B (SALL4, Homo sapiens, UniProt Q9UJQ4-2, residues 1-616)
Setting: 8-mer, flanks averaged, mean of replicates
Oligonucleotide	E-score
ACGGACAG	-0.128
ACTAGTCG	-0.0624
CTATTGTC	0.0277
AAAAAATT	0.355
CATGCAAG	0.0386
CAGTTCAC	0.0348
ACCTCCTC	-0.118
TAGCCACA	0.0911
ACGTGAGG	-0.0958
CGCAAGAA	-0.165
ATCTGCCC	-0.165
GGACGGTA	0.0446
TCAGTGGA	-0.177
CCGACGGC	-0.334
CATCCTAC	-0.0233
CGGTTACA	0.0656
GTACGGAA	-0.0247
AATACCAA	0.285
AAGCCAAA	-0.108

Sample 7 — method: DHFR PCA, dose-response; matrix: yeast; together with: (+)-ABA, dose series; reading: lower = more sensitive
Target: ABI1, truncated, D143A, DHFR fusion (Arabidopsis thaliana, UniProt P49597)
Setting: Hill fit, not affinity, not high confidence
Parent: PYL1, truncated, DHFR fusion (Arabidopsis thaliana, UniProt Q8VZS8); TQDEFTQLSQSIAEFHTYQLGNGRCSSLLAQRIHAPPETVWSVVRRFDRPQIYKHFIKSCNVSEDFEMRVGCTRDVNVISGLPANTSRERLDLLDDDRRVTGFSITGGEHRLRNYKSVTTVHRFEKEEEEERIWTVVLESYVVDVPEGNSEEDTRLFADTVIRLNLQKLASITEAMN
Variant	ABA EC50
F103N	0.169 µM
S117D	52.1 µM
V145N	55.9 µM
R74P	11.5 µM
T154H	16.7 µM
F47L	0.218 µM
V78D	7.8 µM
N149F	316 µM
D159P	166 µM
S140C	1670 µM
N149Y	262 µM
I105F	1520 µM
I105W	20.1 µM
L91P	2.05 µM
S140E	2.46 µM
R99D	1890 µM
T120R	910 µM
R74L	81 µM
I105D	10.8 µM
D97E	1.55 µM
V78N	256 µM
Q2H	2.15 µM
A84P	0.24 µM
L91E	4.38 µM
F103R	869 µM

Sample 8 — method: RNA Bind-n-Seq; form: RNA; matrix: in vitro; concentration: 100 nM; relative to: input RNA pool; reading: higher = stronger binding
Target: RING finger protein unkempt homolog, zinc fingers 1-6, SBP tag (UNK, Homo sapiens, UniProt Q9C0B0, residues 30-357)
Chain of UniProt Q9C0B0 (30-357, looked up): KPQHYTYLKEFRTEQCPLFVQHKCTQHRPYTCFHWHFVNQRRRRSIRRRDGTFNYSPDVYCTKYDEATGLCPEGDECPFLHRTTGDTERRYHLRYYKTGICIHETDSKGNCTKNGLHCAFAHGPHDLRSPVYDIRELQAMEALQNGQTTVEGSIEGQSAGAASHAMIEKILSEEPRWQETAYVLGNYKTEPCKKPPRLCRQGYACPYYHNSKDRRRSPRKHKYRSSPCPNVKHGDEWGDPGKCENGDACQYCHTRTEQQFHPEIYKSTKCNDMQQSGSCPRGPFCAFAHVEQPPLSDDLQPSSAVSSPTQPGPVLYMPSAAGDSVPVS
Setting: RNA with constant flanks, vertebrate orthologous sites, ends assumed
All sequences stand within: GGGAGUUCUACAGUCCGACGAUC … CAACAGAGGAUUGAGCAUCA
Oligonucleotide	bound/input enrichment [ratio]
GAGCUAAAGGAGUUAGCAUCUUUAUUUUUGUAUCAAAGAUAAAGGUUAUUUUGAAAUUAUUAGGAUUUUUACACAACUCUGAAAUCUGUUGCUUUUGUAAACAAAUUGUUUGAGCUUAAG	0.806
GCUGUGGGAAACGAGCUUUGCUUUUAUAUAUAUAUAUAUAUAUAUAUAUAUAUAUUUAAAUAGGAUACUUUUAUAUGAUGGGUGCUUUGAGUGUGAAUGCAGCAGGCUCUAUCUCAGAGG	1.64
UCCUCAACUUGUUCUAGCUUGUGAUCCUUCAAAGUUGGGUCAUACGUUAGUGCUAGAUACUAGAAAUUUUCACUUUUCCACUGAUCAGAGAGACAGACAUUAAAAACAAAAAUAGAAGAA	3.16
AAAUAUACUUCAUGCCAUGGACUCCGUAUCGCACGGAUACUUUGAUAGAAUAUGCUUCUUUAGAGGACUUCCAGAACGGACGCCAGCAGACAACGUACAAACUCCCAAACCGAGUGGAUG	0.495
UCUAGACAGUUUUAAAGAUACUUCCUCAUAAGAUGCUUUGGCCCUUCAUCUAUUUAAUCGUAGCUACAUAUCUAUUUUUAUAAGUAGCAGUACACCUUCCAAGGGGACUCAACUUUUAUC	0.514
CGUGCUUAUGCUCUUCUAUGAAAGAGAUGAACUGGGGAGAACUGUCUCCUUUUUAUAGGUUAGUUUCUUUGUAAAUUAUGACCAAAAAUAUUUUGCUAUUUCUUUCUUUGUAUAUGGACA	0.677
UCACACUGUGCUGUGGCACCCUGUCAACACGGAGUAGACCGGCUCUGCAGAUGGGAGAUUUAGAGUUUUUUAAAUUAUGUACUGGGGACAGGUUUUUGUCGCUUUACAUUGCUUCCUAGU	1.24
AUUCAAACCCGUGGUGCCCUGGCCUCAUGUGGAAGGCGUAGAAGUGGACUUGGAGUCUAUUCGAAGAAGGAACAAGGCCAGACAUGAACAAGAGCGCCGCCCCGGAGGAGAGAACCAGAA	0.198

Mixed results
Substance	target	test	system	setting	scale	measurement	result
PhoQ, residues 284 288 289 292 302 303 SQSLSM	PhoP, residues 12 14 15 18 19 SPWRL (Escherichia coli, UniProt P23836)	Sort-seq, item: YFP reporter	E. coli	PhoQ-PhoP variant library, together with: 10 µM Mg2+	relative to: high Mg2+ state, higher = stronger signaling	fold induction	0.801

Excerpt of the above (sample 5):
Oligonucleotide	E-score
CCCTAGCA	-0.21
GATATACC	0.0237
GAGCAGAC	0.0329
GTGGCGGA	0.11
AGAGGGGG	-0.208
AGAGCAAA	-0.31
AACCGCGG	0.404
